Assay results from different studies.
Parts stem from different laboratories: compare values within a part only. Positions count from the first letter of the parent shown. pIC50: −log10 of the molar value.
UniProt P62344, sequence (whole entry, looked up): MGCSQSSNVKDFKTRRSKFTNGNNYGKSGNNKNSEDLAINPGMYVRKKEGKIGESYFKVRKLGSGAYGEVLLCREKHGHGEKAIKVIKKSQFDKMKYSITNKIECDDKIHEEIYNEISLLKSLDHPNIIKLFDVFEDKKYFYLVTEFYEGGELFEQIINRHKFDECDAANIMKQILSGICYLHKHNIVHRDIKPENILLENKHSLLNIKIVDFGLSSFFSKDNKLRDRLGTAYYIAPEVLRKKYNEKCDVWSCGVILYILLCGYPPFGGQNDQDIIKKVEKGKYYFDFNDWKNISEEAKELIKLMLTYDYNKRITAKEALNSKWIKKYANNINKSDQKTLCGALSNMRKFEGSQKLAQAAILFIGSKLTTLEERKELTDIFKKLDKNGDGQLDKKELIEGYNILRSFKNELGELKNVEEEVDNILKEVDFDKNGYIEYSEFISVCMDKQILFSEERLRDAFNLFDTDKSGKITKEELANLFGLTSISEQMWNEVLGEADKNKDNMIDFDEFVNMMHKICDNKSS
UniProt P08709, sequence (whole entry, looked up): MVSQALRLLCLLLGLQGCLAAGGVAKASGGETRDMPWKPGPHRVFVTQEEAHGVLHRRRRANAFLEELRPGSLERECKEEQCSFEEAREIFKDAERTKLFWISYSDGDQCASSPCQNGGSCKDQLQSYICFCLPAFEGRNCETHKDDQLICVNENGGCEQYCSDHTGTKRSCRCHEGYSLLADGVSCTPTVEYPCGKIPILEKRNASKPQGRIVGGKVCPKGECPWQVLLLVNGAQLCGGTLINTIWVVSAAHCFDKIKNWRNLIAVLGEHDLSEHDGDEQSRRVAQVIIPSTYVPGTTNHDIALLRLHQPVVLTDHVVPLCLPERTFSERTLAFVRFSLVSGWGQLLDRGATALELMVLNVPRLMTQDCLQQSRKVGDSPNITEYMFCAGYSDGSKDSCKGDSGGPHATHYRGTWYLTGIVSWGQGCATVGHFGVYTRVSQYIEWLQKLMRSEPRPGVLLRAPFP
UniProt Q14289, sequence (whole entry, looked up): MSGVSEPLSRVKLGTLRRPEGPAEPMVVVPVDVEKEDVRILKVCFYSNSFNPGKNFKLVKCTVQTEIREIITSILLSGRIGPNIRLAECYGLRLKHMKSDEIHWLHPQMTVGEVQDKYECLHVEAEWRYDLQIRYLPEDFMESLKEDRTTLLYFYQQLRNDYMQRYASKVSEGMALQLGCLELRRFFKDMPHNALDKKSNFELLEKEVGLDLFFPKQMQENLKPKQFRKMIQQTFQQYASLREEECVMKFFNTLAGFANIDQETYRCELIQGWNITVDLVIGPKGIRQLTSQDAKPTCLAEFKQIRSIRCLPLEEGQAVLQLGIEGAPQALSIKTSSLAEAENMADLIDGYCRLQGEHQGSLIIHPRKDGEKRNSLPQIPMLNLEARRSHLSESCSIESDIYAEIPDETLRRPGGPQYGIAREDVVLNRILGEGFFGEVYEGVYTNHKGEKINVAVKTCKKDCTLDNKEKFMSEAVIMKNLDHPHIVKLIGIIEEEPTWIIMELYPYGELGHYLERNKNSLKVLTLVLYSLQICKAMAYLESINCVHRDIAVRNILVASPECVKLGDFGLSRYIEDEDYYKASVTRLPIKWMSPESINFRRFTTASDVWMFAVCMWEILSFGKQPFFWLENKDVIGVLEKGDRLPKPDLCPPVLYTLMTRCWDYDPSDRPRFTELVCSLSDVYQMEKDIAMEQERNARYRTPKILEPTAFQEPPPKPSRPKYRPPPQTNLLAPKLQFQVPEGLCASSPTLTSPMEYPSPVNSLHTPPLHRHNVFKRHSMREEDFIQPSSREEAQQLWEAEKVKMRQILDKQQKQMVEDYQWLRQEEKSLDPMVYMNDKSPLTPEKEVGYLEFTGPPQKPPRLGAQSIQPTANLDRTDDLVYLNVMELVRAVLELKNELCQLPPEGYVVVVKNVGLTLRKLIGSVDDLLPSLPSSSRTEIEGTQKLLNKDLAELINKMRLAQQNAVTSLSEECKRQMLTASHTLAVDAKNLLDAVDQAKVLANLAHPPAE

Study 1
Target: HLA class I histocompatibility antigen, A alpha chain, allele A*26:03 (Homo sapiens, UniProt P04439)
Read-out: peptide-MHC binding
Molecule type: peptide
Concentration: concentration not given
Molecule	binding
EKLKSLFNTV	inactive
YYKDDISYF	inactive
EKLKSLYNTV	inactive
ILQDRIRMY	inactive
DTVLFNAGL	inactive
IFDDLQGSL	inactive
YQYIFLSFF	inactive
TVGYMYIMK	inactive

Study 2
Target: CCNA1, cyclin fold, Cln2 fusion (human)
Technique: yeast growth competition, sequencing
Medium: yeast
Setting: strong parent motif
Baseline: not given
Direction: higher = stronger binding
Starting sequence: viral docking peptide; TSVRRALFTGGSD
Substitution	normalised enrichment score
TSRRRALFTGGSD [V3R]	0.598
TSVRRALFTVGSD [G10V]	0.84
TSVRRALETGGSD [F8E]	-0.119
TMVRRALFTGGSD [S2M]	1.03
TSVCRALFTGGSD [R4C]	-0.0212
TSVRRALFTTGSD [G10T]	1.01
TSVRRMLFTGGSD [A6M]	-0.102
TSVRRALFTSGSD [G10S]	1.41

Single results of other studies
SMILES	target or system	assay	setting	how to read	endpoint	value
CC(C)(C)c1cc(C=C(C#N)C#N)cc(Br)c1O	Protein-tyrosine kinase 2-beta (PTK2B, Homo sapiens, UniProt Q14289)	enzyme activity, inhibitor	0.5 µM	baseline: control	remaining activity	99.3%
CC(CN(C)C)CN1c2ccccc2Sc2ccccc21 (centres unmarked)	VeroE6/TMPRSS2	–	17.5 h	–	CC50	26.3 µM
Cc1cc(C)c(-n2ccn3nc(-c4cccnc4)cc23)cc1NC(=O)c1cc(C#N)cc(S(F)(F)(F)(F)F)c1	Calcium-dependent protein kinase 1 (CDPK1, Plasmodium falciparum, UniProt P62344)	cell-free assay, competition with immobilised ligand	0.1 µM	–	remaining binding	88.9%
N=C(N)c1ccc2nc(-c3cc(CC(=O)N[C@@H](CC(=O)O)C(=O)O)cc(-c4cc(S(N)(=O)=O)ccc4O)c3O)[nH]c2c1	Coagulation factor VII (F7, Homo sapiens, UniProt P08709)	–	–	–	pIC50	7.44

For quick reference, copied from above (study 2):
Substitution	normalised enrichment score
TSVRRALFTVGSD [G10V]	0.84
